Published values of several laboratories.
Parts stem from different laboratories: compare values within a part only.

Block 1
Organism: Saccharomyces cerevisiae
Read-out: peptide binding
Method: yeast competitive growth sequencing
Form: peptide
Strain: cyclin-Cln2 fusion strain
Concentration: concentration not given
Notes: library 2
Direction: direction not given
| Sequence | binding score |
| --- | --- |
| PSSMRKICTYFHR | 1.37 |
| PPVIIKYIIINRF | 0.761 |
| GFGFLLFICKLTF | 0.679 |

Block 2
Target: Fragile X messenger ribonucleoprotein 1, C-terminal low-complexity region (Fmr1, Mus musculus, UniProt P35922)
Method: RNA Bind-n-Seq
Form: RNA
Medium: in vitro
Concentration: 200 nM
Notes: whole 134-nt RNA, ends assumed
Added: 150 mM LiCl
Relative to: input library
Direction: higher = stronger binding
Library: 7-deaza-guanosine replaces G
All sequences stand within: GGGAGUUCUACAGUCCGACGAUC … UGGAAUUCUCGGGUGUCAAGG
| Strand | log2 enrichment |
| --- | --- |
| UCCUGUGCUACACAUCGUAUGUACCGAAUCGGAAAAAGGGGAAAAAGGGGAAAAAGGGGAAAGUAUUAUGUUACGCCGUUCGGAUCUGCA | -0.438 |
| UAACUUUAGAGGAGGAUCUGUUGGAUAUGGCAGUGGACGUGGAUUUGGGGAUGGCUAUAAUGGGUAUGGAGGAGGACCUGGAGGUGGCAA | 0.273 |
| AAGUCCUGUGCUACACAUCGUAUGUACCGAAUCGGGAAAAGGAAAAGGGGAAAAGGGAAAGUAUUAUGUUACGCCGUUCGGAUCUGCACU | 0.168 |
| UGGGAGGUGGAUUUUGUUUAUUUUUUUAGCUCAUUUCCAGGGGUUGGAAUUUUUUUUUAAUAUGUGUCAUGAAUAAAGUUGUUUUUGAAA | -1.2 |
| GUCCUGUGCUACACAUCGUAUGUACCGAAUCGGGGUGGGGUUUGGGGAAAAAAAGGGGAAAGUAUUAUGUUACGCCGUUCGGAUCUGCAC | -0.744 |
| UCCUGUGCUACACAUCGUAUGUACCGAAUCGGGGAGGGGAAAAAGGGGUUUUUUUGGGGAAAGUAUUAUGUUACGCCGUUCGGAUCUGCA | -0.00188 |
| ACCAUGCAGGUGGGCAUCUUUGGGAAGUGGGGCAAGGGGGGGAUAGGGAGGGGGGUAACACUCUGGGAACAGGUGGUCCCAGGUCGUUUC | 1.34 |
| CUGUGCUACACAUCGUAUGUACCGAAUCGGGGUUUUUUUGGGGUUUGGGGAAAAAAAGGGGAAAGUAUUAUGUUACGCCGUUCGGAUCUG | -0.823 |

Block 3
Target: Interferon regulatory factor 7, full length, phosphomimetic (IRF7, Homo sapiens, UniProt Q92985, residues 1-503, S101K/S471D/S472D/S475D/S476D/S477D/S483D/S484D/S487D)
Chain of UniProt Q92985 (whole entry, unmodified, looked up): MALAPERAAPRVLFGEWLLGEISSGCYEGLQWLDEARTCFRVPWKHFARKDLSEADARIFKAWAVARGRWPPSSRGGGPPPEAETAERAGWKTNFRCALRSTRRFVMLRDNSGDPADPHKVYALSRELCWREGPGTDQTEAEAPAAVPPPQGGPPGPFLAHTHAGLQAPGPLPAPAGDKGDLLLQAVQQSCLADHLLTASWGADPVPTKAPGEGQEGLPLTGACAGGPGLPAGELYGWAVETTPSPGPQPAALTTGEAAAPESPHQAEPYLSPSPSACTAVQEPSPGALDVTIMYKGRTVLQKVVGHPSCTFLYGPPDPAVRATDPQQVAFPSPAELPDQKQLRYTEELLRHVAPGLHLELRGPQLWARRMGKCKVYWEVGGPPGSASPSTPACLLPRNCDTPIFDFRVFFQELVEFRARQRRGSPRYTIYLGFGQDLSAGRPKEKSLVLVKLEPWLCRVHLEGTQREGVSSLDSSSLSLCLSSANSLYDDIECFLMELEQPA
Method: protein-binding microarray
Form: double-stranded DNA, one strand shown
Medium: in vitro
Concentration: 250 nM
Notes: 60-bp whole probe
Added: salmon DNA 0.4 mg/ml
Relative to: random background probes
Direction: higher = stronger binding
All sequences stand within: GCCTAGCAC … GTCTTGATTCGCTTGACGCTGCTG
| Strand | log fluorescence |
| --- | --- |
| AGAATTTCCACTTTGACTTAGTGCTAG | 1.72 z-score |
| GACGGTTACGACTTTCGGGACGTGCTA | 0.288 z-score |
| TTAGAACTCAGTCTCGATTAGTGCTAG | 1.39 z-score |
| CTAGGTCTCCTTCTCCTTTAGTGCTAG | 0.403 z-score |
| TATTGTGTCAACTTTCTCTGCGTGCTA | 0.127 z-score |
| TTCGGTTTCGACTTTCGGTTAGTGCTA | 11.7 z-score |
| TTAGGTTTCGGGTATCGGATAGTGCTA | 7.51 z-score |
| GACGGTTTCGGTATCTGGACGTGCTAG | 10.9 z-score |
| GCCGGTTTCGGTTTCGGGACGTGCTAG | 14.6 z-score |
| ATAGATTTCAGTCTCGATTAGTGCTAG | 2.14 z-score |
| GACGTTATCCTTCTCCTGACGTGCTAG | 0.672 z-score |
| TCAGTTTCGTATCTTCATTGTGTGCTA | 10.6 z-score |
| GACGGTCTCTGTCTCGGGACGTGCTAG | 0.0644 z-score |
| GACGGTATCGACTTTCGGGATGTGCTA | 1.57 z-score |
| GAAGATTTCGGGACTGGAGACGTGCTA | -0.164 z-score |
| GACGGCCTGGGGACTGGGGACGTGCTA | -0.763 z-score |
| GACGGTCTCGTTCTCGGGACGTGCTAG | 1.54 z-score |
| GACGGTTCCGGATTCGGGACGTGCTAG | 3.38 z-score |
| GACGATTTCAATTTCGAGACGTGCTAG | 0.927 z-score |

Block 4
Target: RNA binding protein fox-1 homolog 2, RRM domain, GST-SBP tag (RBFOX2, Homo sapiens, UniProt O43251-10, residues 100-194)
Method: RNA Bind-n-Seq
Form: RNA
Medium: in vitro
Concentration: 365 nM
Notes: natural RNA segment, single round, ends assumed
Relative to: no-protein control
Direction: higher = stronger binding
All sequences stand within: GGGAGUUCUACAGUCCGACGAUC … UGGAAUUCUCGGGUGCCAA
Target sequence (chain): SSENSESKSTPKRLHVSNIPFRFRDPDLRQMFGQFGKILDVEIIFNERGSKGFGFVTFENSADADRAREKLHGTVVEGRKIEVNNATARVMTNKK
| Strand | RBNS enrichment (R) |
| --- | --- |
| ACCCUAUUUAAAACUGGGUCAUCAUUUGUCCUGUUCUAGCAAGAUAGUCUUCAGUUUCAUUUUCCUGUGCCCUGUGGUAGUUGGAAACAAAUCAUAAUGUAUUAUUUAAA | 0.345 |
| GGGAGUCCCUGCACUGCCAUCUGGCCGGGACGGAGGCGCCUGCCCGGUCUCCAGGCUCCUCUGAGCUUGGGUCAGCUCCUAAUGGAGCAUGGCACCCCAGGGAACCAGAG | 0.184 |
| GGGUGACUGCUCUGAGAGGCACUUCACUCACAGGCCUGUGGGAUGCUCCAUGGGGCCCUGCUGGCUCCAUGGGGCCCAGGUGCAAAGGGUUUCUGAAAAACAGCAGGAUU | 0.247 |
| CCCACUCCAAAAGGUAGUACCUCAAGGCUUCUCGCACUCCCCUAUUUCCUCGGGAUAUGAGAAGCCUCGAUAAACAUCUCUGCCGUUCCCCAUCCCUAUAUCAACACUCU | 0.51 |
| GGUGGGGCCUCGUGGUGCCUAGGAGAUGAAGAUGAGGUUUUCCUUACCGUGUAAAUGAAUAUUUGUAUGAUUAAAUUAACACACACAAAAAAAAAAACCCCGCCUUUAUC | 0.687 |
| UUGGUGGUCCUAAGUGGGUCACUUAAGAAAAAAAAGUGUAACAAAUUCUCGCUCCAUGAACCUGGUUUUUUUUUAUUCUGUUGUGGAAAUUUUUAAAUCUCCAACUUGCU | 0.621 |
| UGUUAACCAAAGGAGGCAUUGAUUUCAGUUUUAAGGCUACUCAGUGUUGUGUGUCCAGGGAAAUUCACAGCUCAGUAUGAGAAUACCUUGGUUAGUGCUCACCCACAAGC | 0.393 |
| UUGGCAUCCUUGCUCAUCCAUUCCUGUCUACCUCCCUUGUUAGUCUAGAUUUCUGGAGUUAUGUUCCCCACAUCCAAAGCCAGUGUCUACAUACAGCUGCCAUGCCCUUU | 0.752 |

Some of these lines once more (block 3):
| Strand | log fluorescence |
| --- | --- |
| TATTGTGTCAACTTTCTCTGCGTGCTA | 0.127 z-score |
| TTCGGTTTCGACTTTCGGTTAGTGCTA | 11.7 z-score |
| TTAGGTTTCGGGTATCGGATAGTGCTA | 7.51 z-score |
| GACGGTTTCGGTATCTGGACGTGCTAG | 10.9 z-score |
| GCCGGTTTCGGTTTCGGGACGTGCTAG | 14.6 z-score |
| ATAGATTTCAGTCTCGATTAGTGCTAG | 2.14 z-score |
